Results gathered from unrelated publications.
Every numbered part comes from another study and shows a few of its results, in no order. Positions count from the first letter of the parent shown.

Set 1 — target: CCNA1, cyclin fold, Cln2 fusion (human); technique: yeast growth competition, sequencing; sample: yeast; notes: weak parent motif; reference: not given; reading: higher = stronger binding
Starting sequence: PKN2 docking peptide (human); VSAVRKLDFSDTM
Substitution	normalised enrichment score
VSDVRKLDFSDTM [A3D]	-0.292
VSPVRKLDFSDTM [A3P]	-0.458
VSAVRKLDFGDTM [S10G]	0.94
VSAVRKLDDSDTM [F9D]	-0.0497
VSAVRKLDFSITM [D11I]	0.542
VSAVRKLDFSDSM [T12S]	1.08
VSAVRKLDFTDTM [S10T]	0.97
VSAVPKLDFSDTM [R5P]	-0.0783
VSAVRKIDFSDTM [L7I]	0.259
VSAVRKLDFSWTM [D11W]	-0.256
VSAVRKLDISDTM [F9I]	0.329
VSAVYKLDFSDTM [R5Y]	0.0928

Set 2 — technique: protein-binding microarray; form: double-stranded DNA, one strand shown; sample: in vitro; concentration: 940 nM top; notes: 60-bp whole probe; added: salmon DNA 0.4 mg/ml; reference: random background probes; reading: higher = stronger binding; constant ends, left off below: GCCTAGCAC … GTCTTGATTCGCTTGACGCTGCTG
Target: Interferon regulatory factor 5, full length, phosphomimetic (IRF5, Homo sapiens, UniProt Q13568-2, residues 1-514, S451D/S453D/S456D/S462D)
Oligonucleotide	fitted relative affinity
GACGGTATCGGTATCGGGACGTGCTAG	8.72 z-score
TTTGATTTCAGTTTCGATTAGTGCTAG	9.8 z-score
GACGGTCTCTTTATCCTGACGTGCTAG	0.978 z-score
GACGGACTGCATATCCTGACGTGCTAG	-0.475 z-score
TCAAGTATGTTCCTTATTACTGTGCTA	0.651 z-score
TTAGGACTAGACTTTCGGTTAGTGCTA	2.22 z-score
GACAGTCTCGGTCTCGGGACGTGCTAG	5.87 z-score
GACGAACTGAGTCTCGATACGTGCTAG	2.98 z-score
GACGGTTTCGTTTCCCTGACGTGCTAG	9.38 z-score
AGGACTCGAATCCTGCAGGGGTGCTAG	-0.308 z-score
TTAGGTAGCGGTCTCGGTTAGTGCTAG	1.99 z-score
ATTCATATATATATGAAAAAGTGCTAG	-0.0169 z-score
TCATGTCTGGGATTTTGACTGTGCTAG	-0.282 z-score
TCAACTCTCTGGGCTGTGACTGTGCTA	0.154 z-score
GTGTATATATAATATATATTCGTGCTA	0.0621 z-score
GACGGATTGGGGTTTCGGGACGTGCTA	2.28 z-score
GACGATCTCAGACTGGAGACGTGCTAG	-0.492 z-score
TCAAATCCCCTTCTACTACTGTGCTAG	0.669 z-score
GACGGACTGGACTTTCGGCACGTGCTA	0.312 z-score
ACGTTTTTCATTTTTTTTTTGTGCTAG	1.94 z-score

Set 3 — technique: universal PBM; form: double-stranded DNA, one strand shown; sample: in vitro; concentration: not given; reading: higher = stronger binding
Target: Sal-like protein 4, full length isoform B (SALL4, Homo sapiens, UniProt Q9UJQ4-2, residues 1-616)
Notes: 8-mer, flanks averaged, mean of replicates
Construct (chain): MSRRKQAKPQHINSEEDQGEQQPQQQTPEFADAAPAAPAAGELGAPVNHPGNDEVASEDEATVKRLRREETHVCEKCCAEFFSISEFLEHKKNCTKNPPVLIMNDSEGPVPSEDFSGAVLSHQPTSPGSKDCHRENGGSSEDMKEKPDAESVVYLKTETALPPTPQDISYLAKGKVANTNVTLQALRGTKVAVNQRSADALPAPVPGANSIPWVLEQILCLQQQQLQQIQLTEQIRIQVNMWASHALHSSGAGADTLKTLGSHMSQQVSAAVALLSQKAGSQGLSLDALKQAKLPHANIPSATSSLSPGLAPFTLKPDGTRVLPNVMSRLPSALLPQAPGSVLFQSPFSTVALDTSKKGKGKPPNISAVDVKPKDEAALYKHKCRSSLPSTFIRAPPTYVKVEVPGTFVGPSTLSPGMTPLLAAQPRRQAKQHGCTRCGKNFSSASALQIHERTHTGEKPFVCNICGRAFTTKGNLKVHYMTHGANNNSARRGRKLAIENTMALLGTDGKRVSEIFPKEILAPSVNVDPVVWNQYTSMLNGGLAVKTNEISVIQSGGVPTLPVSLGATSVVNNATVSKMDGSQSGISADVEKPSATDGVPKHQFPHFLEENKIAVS
Oligonucleotide	E-score
CTATGCTC	-0.161
ACTTACCC	0.0259
ACATGGCG	-0.071
AAACTTCC	-0.0968
TTCAAAAA	0.225
GATTCAAA	0.183
AAGAAGGC	0.0139
AAAGTAAA	0.285
ACTCATAC	0.224
ATAGAATC	0.217
TCCAAGGA	-0.0249
AGGCTCTA	-0.104
CGGCTCTC	-0.241
AGGTTCTG	-0.027
ATGCATCA	0.281

Single results of other studies
Molecule	target	test	system	setting	how to read	measurement	result
PhoQ, residues 284 288 289 292 302 303 TTCLQL	PhoP, residues 12 14 15 18 19 TQAIL (Escherichia coli, UniProt P23836)	Sort-seq, item: YFP reporter	E. coli	PhoQ-PhoP variant library, added: 10 µM Mg2+	reference: high Mg2+ state, higher = stronger signaling	fold induction	8.17

Repeated from above (set 2):
Oligonucleotide	fitted relative affinity
GACGGACTGCATATCCTGACGTGCTAG	-0.475 z-score
GACGATCTCAGACTGGAGACGTGCTAG	-0.492 z-score
ACGTTTTTCATTTTTTTTTTGTGCTAG	1.94 z-score
ATTCATATATATATGAAAAAGTGCTAG	-0.0169 z-score
GACGAACTGAGTCTCGATACGTGCTAG	2.98 z-score
GACGGTATCGGTATCGGGACGTGCTAG	8.72 z-score
